Measurements pooled from the literature.
Numbered parts are unrelated; each lists some results of a single study. Positions count from the first letter of the parent shown.

Series 1 — method: protein binding microarray; molecule type: double-stranded DNA, one strand shown; medium: in vitro; concentration: not given; relative to: not given; direction: higher = stronger binding; endpoint: E-score
Target: Histone acetyltransferase KAT6A, both winged helices, GST fusion (KAT6A, Homo sapiens, UniProt Q92794, residues 1-181)
Setting: 8-mer, flanks averaged, mean of 2 arrays, mostly near background
Construct (chain): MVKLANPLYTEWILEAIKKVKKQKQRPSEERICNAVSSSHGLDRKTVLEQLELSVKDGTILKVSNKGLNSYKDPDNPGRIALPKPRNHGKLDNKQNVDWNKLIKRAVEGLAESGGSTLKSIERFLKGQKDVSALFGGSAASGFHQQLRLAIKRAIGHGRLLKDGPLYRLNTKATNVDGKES
GATCTCCA: -0.182
GGTTCGCA: 0.0501
GGAAGAGA: -0.0618
GGTTACTA: 0.00949
GGCACGAC: -0.0758
ATGTGAGG: -0.119
AGGTGACG: -0.0369
CAAGCGCA: 0.193
ATGGTTGG: 0.00616
AACACATT: 0.00567
ATCACGAA: -0.0959
CGCCACAC: 0.0767
ACCCGAGT: 0.1
AGGGAACT: -0.191
CTACGCTC: 0.0748
AAGTGGAG: -0.177
CCAGGGAG: -0.207

Series 2 — target: CCNF, cyclin fold, Cln2 fusion (human); method: yeast growth competition, sequencing; medium: yeast; setting: weak parent motif; relative to: not given; direction: higher = stronger binding; endpoint: normalised enrichment score
Parent: MASTL docking peptide (human); PMIAKNLMCELDE; partner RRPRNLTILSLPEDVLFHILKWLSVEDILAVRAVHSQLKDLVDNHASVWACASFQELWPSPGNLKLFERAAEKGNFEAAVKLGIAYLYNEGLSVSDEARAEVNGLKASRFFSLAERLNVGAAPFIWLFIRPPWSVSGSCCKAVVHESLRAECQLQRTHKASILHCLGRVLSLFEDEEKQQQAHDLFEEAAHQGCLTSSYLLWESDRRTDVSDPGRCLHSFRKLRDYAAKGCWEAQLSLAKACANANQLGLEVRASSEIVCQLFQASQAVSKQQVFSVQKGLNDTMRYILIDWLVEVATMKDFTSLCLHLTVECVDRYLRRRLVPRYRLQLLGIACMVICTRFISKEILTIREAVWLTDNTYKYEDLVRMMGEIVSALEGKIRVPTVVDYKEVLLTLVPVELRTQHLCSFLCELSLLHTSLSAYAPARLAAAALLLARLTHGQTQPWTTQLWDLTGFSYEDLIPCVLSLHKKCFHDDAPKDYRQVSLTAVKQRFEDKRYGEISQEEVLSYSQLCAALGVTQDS
PMIAKNLMCEFDE [L11F]: -0.152
PMIAKNLMCNLDE [E10N]: 0.16
PMIAKNNMCELDE [L7N]: -0.172
PMIAKNLMCEKDE [L11K]: -0.347
PMIAKNLMCEIDE [L11I]: 0.369
PMIAKNLMTELDE [C9T]: -0.108
PMIADNLMCELDE [K5D]: -0.00719
PMVAKNLMCELDE [I3V]: -0.0892
PMIAKNLMCEWDE [L11W]: 0.261
PMIAKNLMCEQDE [L11Q]: 0.0919
PMIAKNWMCELDE [L7W]: -0.357
PMQAKNLMCELDE [I3Q]: -0.404
PMIACNLMCELDE [K5C]: -0.29
PMIAKTLMCELDE [N6T]: -0.251
PMIALNLMCELDE [K5L]: -0.0509
PMIAKNLMCELGE [D12G]: 0.303
PMIAKNLMWELDE [C9W]: 0.15
PEIAKNLMCELDE [M2E]: -0.123
PMIAKNLMCESDE [L11S]: -0.219
PWIAKNLMCELDE [M2W]: -0.125
PMIAKNLMCELHE [D12H]: 0.307
PMIAKNGMCELDE [L7G]: -0.73
PMIAKNLMKELDE [C9K]: 0.277
PMIAKNLMCEGDE [L11G]: 0.113
PMIAINLMCELDE [K5I]: -0.101

Series 3 — method: aptamer microarray, sandwich; molecule type: DNA with 2'F-ANA; medium: in vitro; concentration: 200 nM; with: Cy3 exosite-II aptamer, 400 nM; direction: higher = stronger binding; endpoint: mean fluorescence intensity; strand: GGTTGGTGTGGTTGG
Target: Prothrombin, mature alpha-thrombin (F2, Homo sapiens, UniProt P00734)
Setting: whole 15-mer aptamer, many near background
2'F-ANA at 2 3 5 6 8 9 12: 239 a.u.
2'F-ANA at 1 2 6 7 8 9 10 13: 60.5 a.u.
2'F-ANA at 1 5 7 8 9 10 12: 49.1 a.u.
2'F-ANA at 2 4 10 11 12 13 14 15: 68.7 a.u.
2'F-ANA at 2 3 7 9 12: 1030 a.u.
2'F-ANA at 3 4 8 9 10 13: 222 a.u.
2'F-ANA at 4 6 10 11 13 14: 55 a.u.
2'F-ANA at 1 2 3 4 5 7 9 12 14 15: 73.5 a.u.
2'F-ANA at 1 3 4 6 7 10 11 13: 53.7 a.u.
2'F-ANA at 1 2 3 5 10 11 12 14: 44.7 a.u.
2'F-ANA at 1 7 8 9 10 13: 61 a.u.
2'F-ANA at 2 3 4 9 10 11 12 14 15: 182 a.u.
2'F-ANA at 1 3 4 5 6 7 8 9 10: 49.3 a.u.
2'F-ANA at 3 5 6 11 15: 106 a.u.
2'F-ANA at 1 2 3 5 8 12 13 14 15: 55.3 a.u.
2'F-ANA at 4 5 9 10 11 12 13: 51.5 a.u.
2'F-ANA at 1 2 10 14: 43.7 a.u.
2'F-ANA at 2 7 8 11 13: 423 a.u.
2'F-ANA at 2 4 9 10 13 14 15: 59.1 a.u.
2'F-ANA at 2 6 7 11 12 14 15: 144 a.u.
2'F-ANA at 1 2 3 5 8 12 13 14: 45.6 a.u.
2'F-ANA at 1 6 8 9 11 15: 150 a.u.
2'F-ANA at 2 3 6 7 9 10 11 15: 262 a.u.
2'F-ANA at 3 5 7 9 14 15: 59 a.u.
2'F-ANA at 1 2 3 5 7 8 9 11 12 13 15: 77.1 a.u.

Series 4 — method: RNA Bind-n-Seq; molecule type: RNA; medium: in vitro; concentration: 200 nM; setting: whole 134-nt RNA, ends assumed; with: 150 mM LiCl; relative to: input library; direction: higher = stronger binding; endpoint: log2 enrichment; all molecules: 7-deaza-guanosine replaces G
Target: Fragile X messenger ribonucleoprotein 1, C-terminal low-complexity region (Fmr1, Mus musculus, UniProt P35922)
Constant ends, left off below: GGGAGUUCUACAGUCCGACGAUC … UGGAAUUCUCGGGUGUCAAGG
AUGGAUGACCCCUCUGUGGGCCCCAAGAUCCCCCAGGCUUUGGAGAAGAUCCUGCAGCUGAAGGAGAGCCGCCAGGAAGAGAUGAAUUCU: 0.496
AAGUCCUGUGCUACACAUCGUAUGUACCGAAUCAAACCCCCAAAUUUAAAUUUAAAAAAGUAUUAUGUUACGCCGUUCGGAUCUGCACUU: 0.634
UUACACCAAUGAGAAGCUGCAGCAGCUCUUCAACCACACCAUGUUCAUCCUGGAGCAGGAGGAGUACCAGCGCGAGGGCAUCGAGUGGAA: 0.298
UCAAGUCCUGUGCUACACAUCGUAUGUACCGAAUCGGAAAGGGAAAGGAAAGGGAAAGUAUUAUGUUACGCCGUUCGGAUCUGCACUUCC: -0.4
CCCUGUGGGCCUUGCUCAGAGCGGAGAAAGCAUUUGUUUGUACAAGAUCCGCAGACGUGUAAAUGUUCCUGCAAAAACACAGACUCGCGU: -1.3
UAACUUUAGAGGAGGAUCUGAUGGAUAUGGCAGUGGACGUGGAUUUGGGGAUGGCUAUAAUGGGUAUGGAGGAGGACCUGGAGGUGGCCA: -1.58
UCAAGUCCUGUGCUACACAUCGUAUGUACCGAAUCGGAAAAAGGAAAGGAAAGGAAAGUAUUAUGUUACGCCGUUCGGAUCUGCACUUCC: -0.939
AGUCCUGUGCUACACAUCGUAUGUACCGAAUCGGGAAAAAGGAAAAAGGGAAAAAGGGAAAGUAUUAUGUUACGCCGUUCGGAUCUGCAC: -1.12
GUCCUGUGCUACACAUCGUAUGUACCGAAUCGGAAAAAAGGAAAAAAGGAAAAAAGGGGAAAGUAUUAUGUUACGCCGUUCGGAUCUGCA: -0.0921
UCCUGUGCUACACAUCGUAUGUACCGAAUCGGAAAAAAAGGAAAAAAAGGUUUUUUUGGAAAGUAUUAUGUUACGCCGUUCGGAUCUGCA: -2.09
AAGUCCUGUGCUACACAUCGUAUGUACCGAAUCGGGGUUUGGGGUGGGGAAAGGGGAAAGUAUUAUGUUACGCCGUUCGGAUCUGCACUU: -0.504

Series 5 — method: protein-binding microarray; molecule type: double-stranded DNA, one strand shown; medium: in vitro; concentration: 0.8 µM; setting: whole 60-bp probe, no competitor; direction: higher = stronger binding; endpoint: fluorescence intensity; constant ends, left off below: … GTCTTGATTCGCTTGACGCTGCTG
Target: Centromere-binding protein 1, full length, N-terminal tag (CBF1, Saccharomyces cerevisiae, UniProt P17106, residues 1-351)
Chain of UniProt P17106 (whole entry, looked up): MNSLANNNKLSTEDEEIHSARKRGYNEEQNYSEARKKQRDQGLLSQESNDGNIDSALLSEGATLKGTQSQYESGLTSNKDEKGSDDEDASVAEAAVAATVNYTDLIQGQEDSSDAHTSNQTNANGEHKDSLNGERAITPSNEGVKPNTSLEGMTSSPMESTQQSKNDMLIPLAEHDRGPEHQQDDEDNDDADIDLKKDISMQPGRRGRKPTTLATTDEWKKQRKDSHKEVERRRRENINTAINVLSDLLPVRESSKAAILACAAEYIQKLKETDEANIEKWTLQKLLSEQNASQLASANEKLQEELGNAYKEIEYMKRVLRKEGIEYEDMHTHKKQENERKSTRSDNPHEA
GAAGGGGTGCGTGGGCGTGCGCTGCTCGAGGCATAG: 545 a.u.
TGTACGAAGCTATCAATCACCAGTATAGTAGTTAGG: 539 a.u.
CTAATTTCTCGCGAGCTGGTGATGAGCCAAATGTTC: 507 a.u.
CTAAAGAGTTAACTTCACGCGGGTAAATCACTTTTC: 534 a.u.
GAAGTTCTGTTTACTGGTGACAAGAATTAAAAATAG: 632 a.u.
TGTACGAAGCTATGCCACGTGACTATAGTAGTTAGG: 17000 a.u.
GAAGAACGTAGTATCCACATGCCATCCTCCTTGTAG: 523 a.u.
TGTACGAAGCTATACACGTGTACTATAGTAGTTAGG: 5150 a.u.
CCTAACTACTATATATTCGTGGTATAGCTTCGTACA: 518 a.u.
GAAGCAGAAATCAAACGCGTGGCCCTGAAGGATTAG: 488 a.u.
GAACAGAAGGTCTACCACATGTGTTTTGAATATTAG: 698 a.u.
CTAAGACGTTGGAAACACGCAACGTCTTTTTTGTTC: 526 a.u.
GAAATATATCTCATTCATCTGATTCTGTGAGGTTAG: 521 a.u.
GAATCTAATAACAAGCACGTAGAATATTGGCCATAG: 520 a.u.
CCTAACTACTATAGCATCGTGCAATAGCTTCGTACA: 508 a.u.
CTAACTCCAATTAAGCACCACCTAGTGCGTCTATTC: 486 a.u.
CTATATCCACCAACGCACGTATACTTCTTCACTTTC: 517 a.u.
GAATTTATGATTGCTCGAATCACGTTTTTCTTGTAG: 2150 a.u.
GAATGAGATTTAATGCACGTTATGTTTCGTTCTTAG: 642 a.u.
CTATTAGGAAAATGCCTCATGACGGTATCTGGGTTC: 521 a.u.
GAAAGCTGGTGTGGACATGACGCTTTATCTTTTTAG: 537 a.u.
CCTAACTACTATAGATTTAATATATAGCTTCGTACA: 515 a.u.
GAAGTGTGTCCCACACTCGTGGCACGTTTTCTTTAG: 1040 a.u.
CTAGCACTGAAAAACCACGCCACTGAGTGCGGATTC: 504 a.u.

A few entries again (series 2):
PMIAKNLMWELDE [C9W]: 0.15
PMQAKNLMCELDE [I3Q]: -0.404
PMIAKNLMCEKDE [L11K]: -0.347
PMIAKNLMCESDE [L11S]: -0.219
PEIAKNLMCELDE [M2E]: -0.123
PMIAKNGMCELDE [L7G]: -0.73
PMIACNLMCELDE [K5C]: -0.29
PMIAKTLMCELDE [N6T]: -0.251
PMIAKNLMCEIDE [L11I]: 0.369
PMIAKNLMTELDE [C9T]: -0.108
PMIAKNLMKELDE [C9K]: 0.277
PMVAKNLMCELDE [I3V]: -0.0892
